# Assay results from different studies.
# Numbers after ± are the reported error.
# Cell line: MCF7
SMILES,test,setting,IC50 [µM]
CC(C)C[C@H](NC(=O)[C@H](C)NC(=O)[C@H](CCCCN)NC(=O)[C@H](C)NC(=O)[C@H](C)NC(=O)[C@@H]1CSCc2cccc(c2)CSC[C@H](NC(=O)[C@H](CCCCN)NC(=O)[C@H](Cc2ccccc2)NC(=O)CN)C(=O)N[C@@H](CC(C)C)C(=O)N[C@@H](CC(C)C)C(=O)N[C@@H](CCCCN)C(=O)N1)C(=O)N[C@H](C(=O)N[C@@H](CCCCN)C(=O)N[C@H](C(=O)N[C@H](C(=O)N[C@@H](CC(C)C)C(=O)N[C@@H](Cc1ccccc1)C(N)=O)C(C)C)[C@@H](C)O)C(C)C,"cell growth or viability, CCK-8",,22.9
CC(=O)O[C@H]1C(=O)[C@@]2(C)[C@H]([C@H](OC(=O)c3ccccc3)[C@]3(O)C[C@H](OC(=O)[C@H](OC(=O)CCC(=O)NCC(=O)NCC(=O)N[C@@H](CCC(=O)O)C(=O)N4C[C@H](O)C[C@H]4C(=O)NCC(=O)N[C@@H](CCC(=O)O)C(=O)N4C[C@H](O)C[C@H]4C(=O)NCC(=O)N[C@@H](CCC(=O)O)C(=O)N4C[C@H](O)C[C@H]4C(=O)NCC(=O)N[C@@H](CCC(=O)O)C(=O)N4C[C@H](O)C[C@H]4C(=O)NCC(=O)N[C@@H](CCC(=O)O)C(=O)N4C[C@H](O)C[C@H]4C(=O)NCC(=O)N4CCC[C@H]4C(=O)N[C@@H](CCCNC(=N)N)C(=O)NCC(=O)N4CCC[C@H]4C(=O)N[C@@H](CCCNC(=N)N)C(=O)NCC(=O)N4CCC[C@H]4C(=O)N[C@@H](CCCNC(=N)N)C(=O)NCC(=O)N4CCC[C@H]4C(=O)N[C@@H](CCCNC(=N)N)C(=O)NCC(=O)N4CCC[C@H]4C(=O)N[C@@H](CCCNC(=N)N)C(=O)NCC(=O)N[C@@H](CCCNC(=N)N)C(=O)N[C@@H](CCCNC(=N)N)C(=O)NCC(=O)N[C@@H](CCCNC(=N)N)C(=O)N[C@@H](CCCNC(=N)N)C(=O)NCC(N)=O)[C@@H](NC(=O)c4ccccc4)c4ccccc4)C(C)=C1C3(C)C)[C@]1(OC(C)=O)CO[C@@H]1C[C@@H]2O,"cell growth or viability, ATP luminescence",,0.198
CC(=O)c1nn(-c2ccc(Cl)cc2)c2nc3nc(-c4ccccc4)cc(-c4ccc5ccccc5n4)c3c(=O)n12,"cell growth or viability, MTT",48 h,10.2
C1CCN(C2CCNCC2)CC1.CCCC(CCC)C(=O)[O][Pt]([OH])([Cl])[Cl].CCCCN,cytotoxicity,72 h,8.8 ± 1.48
C[C@@H](N)[C@H](O)CCCCCCCC(=O)CCCCCCCCCCCCCC[C@@H](O[C@@H]1O[C@H](CO)[C@H](O)[C@H](O)[C@H]1O)[C@H](N)CO,"cell growth or viability, resazurin",96 h,6.16
COC(=O)C1CN1S(=O)(=O)c1ccccc1 (centres unmarked),"cell growth or viability, MTT",48 h,40
CC(C)C[C@H](NC(=O)[C@H](C)NC(=O)[C@H](CCCCN)NC(=O)[C@H](CC(C)C)NC(=O)[C@H](C)NC(=O)[C@H](CC(C)C)NC(=O)[C@H](CCCCN)NC(=O)[C@H](CC(C)C)NC(=O)[C@H](C)NC(=O)[C@H](CC(C)C)NC(=O)[C@@H](N)CCCCN)C(=O)N[C@@H](CCCCN)C(=O)N[C@@H](C)C(=O)N[C@@H](C)C(=O)N[C@@H](CC(C)C)C(=O)N[C@@H](CCCCN)C(=O)N[C@@H](CC(C)C)C(=O)N[C@@H](C)C(N)=O,cytotoxicity,,1.8
C1N2CN3CN1CP(C2)C3.CC(C)OC(=O)C(n1cccn1)n1cccn1.F[P-](F)(F)(F)(F)F.[Cu+],"cell growth or viability, MTT",72 h,20.7
Cc1ccc(C(c2c(C)nn(-c3ccccc3)c2O)c2c(C)nn(-c3ccccc3)c2O)cc1,"cell growth or viability, MTT",48 h,30.4
C#CCN[C@@H]1C=C[C@]2(O[C@H]([C@@H](CC)C(=O)[C@@H](C)[C@@H](O)[C@H](C)[C@@H]3O[C@@H]([C@@H](CC)C(=O)O)CC[C@@H]3C)[C@@H](C)C[C@H]2C)O[C@@]12CC[C@@](C)([C@H]1CC[C@](O)(CC)[C@H](C)O1)O2,"cell growth or viability, resazurin",72 h,0.41
C[C@H]1O[C@@H](O[C@H]2[C@@H](O)C[C@H](O[C@H]3[C@@H](O)C[C@H](O[C@H]4CC[C@@]5(C)[C@H](CC[C@@H]6[C@@H]5C[C@@H](O)[C@]5(C)[C@@H](C7=CC(=O)OC7)[C@@H](O)C[C@]65O)C4)O[C@@H]3C)O[C@@H]2C)C[C@H](O)[C@@H]1O,"cell growth or viability, MTT",48 h,0.67
